{"data": "Measurements of several laboratories", "note": "A part holds a random share of what one study measured."}
{"data": "Series 1", "organism": "SARS-CoV-2", "observed": "cytopathic effect", "cell line": "Vero E6", "tested at": "10 µM"}
{"Compound": "CCN(CC)c1ccc(C(=C2C=CC(=[N+](CC)CC)C=C2)c2ccccc2)cc1", "inhibition [%]": -43.2}
{"Compound": "Sc1nnnn1-c1ccccc1", "inhibition [%]": -7.7}
{"Compound": "COc1cccc(C(=O)CCN[C@@H](C)[C@H](O)c2ccccc2)c1", "inhibition [%]": 1.3}
{"Compound": "O=C1C(Cl)=C(Cl)C(=O)C(Cl)=C1Cl", "inhibition [%]": -25.1}
{"data": "Series 2", "target": "RNA binding protein fox-1 homolog 2, RRM domain, GST-SBP tag (RBFOX2, Homo sapiens, UniProt O43251-10, residues 100-194)", "method": "RNA Bind-n-Seq", "molecule type": "RNA", "medium": "in vitro", "tested at": "365 nM", "setting": "natural RNA segment, single round, ends assumed", "relative to": "no-protein control", "direction": "higher = stronger binding", "constant ends, left off below": "GGGAGUUCUACAGUCCGACGAUC … UGGAAUUCUCGGGUGCCAA", "Residues (chain)": "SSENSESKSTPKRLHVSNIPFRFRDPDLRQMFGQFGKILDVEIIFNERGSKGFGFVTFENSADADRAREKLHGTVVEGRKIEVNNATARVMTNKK"}
{"Sequence": "CAUGGUGACACAUAGCAUUGAACUCUCCACUCUGAGGGUGGGUUUCCCUCCCCCUGCCUCUUCUGGGUUGGUCACCCCAUAGGACAGCCACAGGACAGUCACUAGCACCU", "RBNS enrichment (R)": 0.35}
{"Sequence": "AUGUCCCCAGUAUUUACUAUGAGUUGCUUCAGGUCAUUUUUUGAUUUUUUGUUUUUUCUUUUGGAAGUAGGUGUGGUAUAGUCGUUAGUAAAUGAAUCCCUGGGCAGGGA", "RBNS enrichment (R)": 0.461}
{"Sequence": "AGCUCGCGGUGGAAGCCCUGUCCAGCCUGGACGGCGACCUGGCGGGCCGAUACUACGCGCUCAAGAGCAUGACGGAGGCGGAGCAGCAGCAGCUCAUCGACGACCACUUC", "RBNS enrichment (R)": 1.78}
{"Sequence": "GCUCCAAGGAUGUGUUGGACUCUGUGCUCCAGUGGGGCACUGGCUGCACGUGGGUCCUUGGAGAUGCGUGACCCAUGUCUCUGGCUGGUAAUGUUGCCUGCAGCCCACAU", "RBNS enrichment (R)": 2.78}
{"Sequence": "UGAUCAUUGCACUUAAAAUAUUAAUACUUCGGAGGAUAAAGCAGAAGGGUCAUAAGCUCAAGGCCAUUUUUAGAAGCUUGUUGGGACACUGUCUCCAAUAGAAAGUGAAA", "RBNS enrichment (R)": 0.917}
{"Sequence": "CAGAUAGGCUCCGGGGAAGUCCAUUCCAGCUGCCACCGGCAGACAGGAGGAUAGUUGUUCUGUCUUGGGAGACGGUUUCCAAAAACUCCGAGAGACUUUCUGCUAAUGGU", "RBNS enrichment (R)": 0.402}
{"Sequence": "CCAAAACACUGCUUGUGAGAAGGAAGAUGGAAGGUAAGUUCUGUCGUUCUUUCCCCAAUCCCCAGGAAUGGACAAGAAGCCAACUUAGAAAGAAGGGUCUCACGUGGCUG", "RBNS enrichment (R)": 0.352}
{"Sequence": "UUUUUCAUAAACUGGACCAUAAUUCUUCAUGUUUACCAUGGAGAGUUUUACAGAAAUUUGGCUGCACUCUGAGAGUGCUUACUCACAGUUUAUUUGCUUUUUUUAAAAAG", "RBNS enrichment (R)": 0.296}
{"data": "Series 3", "target": "Histone acetyltransferase KAT6A, both winged helices, GST fusion (KAT6A, Homo sapiens, UniProt Q92794, residues 1-181)", "method": "protein binding microarray", "molecule type": "double-stranded DNA, one strand shown", "medium": "in vitro", "tested at": "not given", "setting": "8-mer, flanks averaged, mean of 2 arrays, mostly near background", "relative to": "not given", "direction": "higher = stronger binding", "Residues (chain)": "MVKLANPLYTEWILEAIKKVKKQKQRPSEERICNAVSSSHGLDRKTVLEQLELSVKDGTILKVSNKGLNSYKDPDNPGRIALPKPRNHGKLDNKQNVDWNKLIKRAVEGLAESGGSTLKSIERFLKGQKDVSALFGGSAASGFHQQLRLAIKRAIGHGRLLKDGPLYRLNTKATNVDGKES"}
{"Sequence": "AGTCTAGA", "E-score": -0.181}
{"Sequence": "ATGGACGG", "E-score": 0.159}
{"Sequence": "ATTCACAG", "E-score": -0.108}
{"Sequence": "GTTAGTAA", "E-score": -0.0211}
{"Sequence": "AGTCATAC", "E-score": -0.176}
{"Sequence": "CGAAGGTC", "E-score": 0.0443}
{"Sequence": "CAATTTTC", "E-score": -0.182}
{"Sequence": "ATATCTGA", "E-score": -0.0277}
{"data": "Series 4", "cell line": "HEK-293T", "observed": "pseudovirus infection", "method": "FDA-approved drug library screen", "organism": "VSV pseudotyped with SARS-CoV-2 spike", "tested at": "10 µM", "time": "16 h", "relative to": "vehicle-treated"}
{"SMILES": "CCOC(=O)[C@H](CCc1ccccc1)N[C@@H](C)C(=O)N1CCC[C@H]1C(=O)O", "GFP-positive cells": "100%"}
{"SMILES": "O=C(C1CCCCC1)N1CC(=O)N2CCc3ccccc3C2C1 (centres unmarked)", "GFP-positive cells": "103%"}
{"SMILES": "Nc1ccn([C@H]2CC[C@@H](CO)O2)c(=O)n1", "GFP-positive cells": "89.5%"}
{"data": "Series 5", "target": "Replicase polyprotein 1ab, nsp13 helicase (rep, Severe acute respiratory syndrome coronavirus 2, UniProt P0DTD1)", "action": "inhibitor", "tested at": "20 µM"}
{"Structure (SMILES)": "Cc1ncc(C[n+]2csc(CCOP(=O)(O)OP(=O)(O)O)c2C)c(N)n1", "inhibition [%]": -2.99}
{"Structure (SMILES)": "Cn1c2cc([S+](C)[O-])sc2c2cnn(Cc3cccc(N)c3)c(=O)c21 (centres unmarked)", "inhibition [%]": 8.27}
{"Structure (SMILES)": "O=C(O)[C@@H]1C[C@H](CP(=O)(O)O)CCN1", "inhibition [%]": -4.74}
{"Structure (SMILES)": "NS(=O)(=O)c1ccc(C(=O)O)cc1", "inhibition [%]": 0.21}
{"Structure (SMILES)": "CCCCC[C@H](O)/C=C/[C@@H]1[C@H]2C/C(=C/CCCC(=O)O)O[C@H]2C[C@H]1O", "inhibition [%]": -2.78}
{"Structure (SMILES)": "CCC(=O)NCC[C@@H]1CCc2ccc3c(c21)CCO3", "inhibition [%]": 6.8}
{"Structure (SMILES)": "C[C@]12CC[C@@H](O)C[C@@H]1CC[C@@H]1[C@@H]2CC[C@]2(C)C(=O)CC[C@@H]12", "inhibition [%]": 9.04}
{"Structure (SMILES)": "O=C(NC1(c2ccccc2)CC1)c1c(CN2CCC(N3CCCCC3)CC2)c(-c2cccc(C(F)(F)F)c2)nc2cc(Br)ccc12", "inhibition [%]": 5.89}
{"Structure (SMILES)": "CC(C)[C@@H](CS(=O)(=O)C(C)C)N1C(=O)[C@@](C)(CC(=O)O)C[C@H](c2cccc(Cl)c2)[C@H]1c1ccc(Cl)cc1", "inhibition [%]": 8.1}
{"Structure (SMILES)": "COc1ccc(-c2sc(NC(=O)C(C)(C)C)nc2C)cc1S(=O)(=O)Nc1ccc(O)cc1", "inhibition [%]": 1.51}
{"Structure (SMILES)": "C[C@@H]1O[C@@H](O[C@H]2[C@H](Oc3cc(O)c4c(c3)O[C@H](c3ccc(O)cc3)CC4=O)O[C@H](CO)[C@@H](O)[C@@H]2O)[C@H](O)[C@H](O)[C@H]1O", "inhibition [%]": 0.02}
{"Structure (SMILES)": "N[C@@H](CCC(=O)N[C@@H](CSN=O)C(=O)NCC(=O)O)C(=O)O", "inhibition [%]": 9.37}
{"Structure (SMILES)": "Cc1ccc2c(c1)[C@]13CCCC[C@@H]1[C@H](C2)N(C)CC3", "inhibition [%]": -3.29}
{"Structure (SMILES)": "FC(F)(F)c1cccc(C2=CCN(CCc3ccc4ccccc4c3)CC2)c1", "inhibition [%]": -2.66}
{"Structure (SMILES)": "CCc1[nH]c(=O)[nH]c1C(=O)c1ccncc1", "inhibition [%]": -0.17}
{"Structure (SMILES)": "NS(=O)(=O)OC[C@@H]1C[C@@H](n2ccc3c(N[C@H]4CCc5ccccc54)ncnc32)C[C@@H]1O", "inhibition [%]": 6.22}
{"Structure (SMILES)": "COc1ccc(NS(=O)(=O)c2ccc(N)cc2)nn1", "inhibition [%]": 3.02}
{"Structure (SMILES)": "CCOC(=O)c1cc(C#N)c(N2CCC(C(=O)NS(=O)(=O)Cc3ccccc3)CC2)nc1C", "inhibition [%]": 7.75}
{"Structure (SMILES)": "CNC(=O)c1cc2c(cn1)[nH]c1ccccc12", "inhibition [%]": 6.48}
{"Structure (SMILES)": "CC(C)C(=O)OCC(=O)[C@@]12O[C@H](C3CCCCC3)O[C@@H]1C[C@H]1[C@@H]3CCC4=CC(=O)C=C[C@]4(C)[C@H]3[C@@H](O)C[C@@]12C", "inhibition [%]": 4.89}
{"Structure (SMILES)": "N[C@@H](CC(=O)N1CCn2c(nnc2C(F)(F)F)C1)Cc1cc(F)c(F)cc1F", "inhibition [%]": -0.06}
{"Structure (SMILES)": "NC(=O)c1noc([C@H](CCCC2CCCCC2)CC(=O)NO)n1", "inhibition [%]": 7.1}
{"Structure (SMILES)": "COCCN1CCC(C(=O)NO)(S(=O)(=O)c2ccc(Oc3ccc(OC(F)(F)F)cc3)cc2)CC1", "inhibition [%]": 3.94}
{"Structure (SMILES)": "S=C=Nc1ccc(N=C=S)cc1", "inhibition [%]": 7.42}
{"Structure (SMILES)": "CC(C)N(CCCNC(=O)Nc1ccc(C(C)(C)C)cc1)C[C@H]1O[C@@H](n2cc(Br)c3c(N)ncnc32)[C@H](O)[C@@H]1O", "inhibition [%]": 8.73}
{"data": "Series 6", "target": "Sal-like protein 4, full length isoform A (SALL4, Homo sapiens, UniProt Q9UJQ4, residues 1-1053)", "method": "universal PBM", "molecule type": "double-stranded DNA, one strand shown", "medium": "in vitro", "tested at": "600 nM", "setting": "8-mer, flanks averaged, mean of replicates", "direction": "higher = stronger binding", "chain of UniProt Q9UJQ4 (whole entry, looked up)": "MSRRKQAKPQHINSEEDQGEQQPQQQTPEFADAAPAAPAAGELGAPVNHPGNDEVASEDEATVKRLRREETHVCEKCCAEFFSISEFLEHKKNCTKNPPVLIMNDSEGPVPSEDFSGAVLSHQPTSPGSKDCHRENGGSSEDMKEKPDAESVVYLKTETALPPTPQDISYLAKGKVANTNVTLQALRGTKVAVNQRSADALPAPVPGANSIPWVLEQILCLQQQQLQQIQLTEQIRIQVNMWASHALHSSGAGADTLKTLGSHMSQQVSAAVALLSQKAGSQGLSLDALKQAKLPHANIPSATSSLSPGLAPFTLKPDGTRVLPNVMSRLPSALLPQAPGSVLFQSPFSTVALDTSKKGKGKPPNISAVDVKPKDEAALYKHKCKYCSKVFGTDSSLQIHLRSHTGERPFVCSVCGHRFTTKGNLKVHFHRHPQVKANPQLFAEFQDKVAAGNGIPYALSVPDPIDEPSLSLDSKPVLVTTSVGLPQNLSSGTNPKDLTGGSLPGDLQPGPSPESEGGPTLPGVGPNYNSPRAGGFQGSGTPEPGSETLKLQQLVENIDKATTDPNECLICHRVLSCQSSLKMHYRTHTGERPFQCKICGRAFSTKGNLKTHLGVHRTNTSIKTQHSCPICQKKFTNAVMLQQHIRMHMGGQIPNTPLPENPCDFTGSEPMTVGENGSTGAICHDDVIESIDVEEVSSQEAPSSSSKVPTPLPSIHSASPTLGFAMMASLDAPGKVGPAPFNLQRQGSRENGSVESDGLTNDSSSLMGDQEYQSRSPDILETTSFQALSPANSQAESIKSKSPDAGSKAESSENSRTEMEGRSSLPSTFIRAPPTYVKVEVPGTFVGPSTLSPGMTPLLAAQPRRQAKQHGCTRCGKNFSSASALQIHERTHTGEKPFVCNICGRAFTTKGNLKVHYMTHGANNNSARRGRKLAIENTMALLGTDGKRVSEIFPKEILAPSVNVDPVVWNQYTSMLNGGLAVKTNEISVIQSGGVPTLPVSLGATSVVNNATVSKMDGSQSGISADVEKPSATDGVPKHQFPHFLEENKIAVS"}
{"Sequence": "GTAATAAC", "E-score": 0.36}
{"Sequence": "GAGCGCGC", "E-score": -0.219}
{"Sequence": "CAGATCGA", "E-score": -0.0405}
{"Sequence": "ACGGAAAT", "E-score": 0.117}
{"Sequence": "AACGTAAG", "E-score": 0.0524}
{"Sequence": "CTAGCGGC", "E-score": -0.304}
{"Sequence": "CGTACCGC", "E-score": -0.225}
{"Sequence": "AAACCGGC", "E-score": -0.371}
